Assay results gathered from unrelated publications.
Lines come from different studies, so protocols differ. Numbers after ± are the reported error.
Chain of UniProt Q15059 (whole entry, looked up): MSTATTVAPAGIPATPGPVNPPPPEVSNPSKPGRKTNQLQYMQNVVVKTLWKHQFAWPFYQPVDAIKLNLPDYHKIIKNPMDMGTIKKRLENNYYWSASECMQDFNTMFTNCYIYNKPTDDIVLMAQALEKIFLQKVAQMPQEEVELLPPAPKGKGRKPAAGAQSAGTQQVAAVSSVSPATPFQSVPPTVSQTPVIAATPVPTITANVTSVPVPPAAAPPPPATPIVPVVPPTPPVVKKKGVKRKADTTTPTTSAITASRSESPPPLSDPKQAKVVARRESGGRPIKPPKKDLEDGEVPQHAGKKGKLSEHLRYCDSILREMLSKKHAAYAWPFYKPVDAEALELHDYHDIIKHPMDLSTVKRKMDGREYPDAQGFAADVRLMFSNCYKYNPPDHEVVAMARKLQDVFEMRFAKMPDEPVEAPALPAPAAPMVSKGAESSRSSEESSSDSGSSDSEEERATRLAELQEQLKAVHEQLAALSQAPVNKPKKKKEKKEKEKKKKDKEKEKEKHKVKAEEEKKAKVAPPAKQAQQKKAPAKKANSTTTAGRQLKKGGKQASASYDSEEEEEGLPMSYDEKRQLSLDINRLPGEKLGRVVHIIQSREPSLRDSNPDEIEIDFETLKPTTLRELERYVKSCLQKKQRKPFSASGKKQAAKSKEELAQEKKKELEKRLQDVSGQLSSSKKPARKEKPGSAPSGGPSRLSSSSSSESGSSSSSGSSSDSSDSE
Chain of UniProt Q8IWQ3 (whole entry, looked up): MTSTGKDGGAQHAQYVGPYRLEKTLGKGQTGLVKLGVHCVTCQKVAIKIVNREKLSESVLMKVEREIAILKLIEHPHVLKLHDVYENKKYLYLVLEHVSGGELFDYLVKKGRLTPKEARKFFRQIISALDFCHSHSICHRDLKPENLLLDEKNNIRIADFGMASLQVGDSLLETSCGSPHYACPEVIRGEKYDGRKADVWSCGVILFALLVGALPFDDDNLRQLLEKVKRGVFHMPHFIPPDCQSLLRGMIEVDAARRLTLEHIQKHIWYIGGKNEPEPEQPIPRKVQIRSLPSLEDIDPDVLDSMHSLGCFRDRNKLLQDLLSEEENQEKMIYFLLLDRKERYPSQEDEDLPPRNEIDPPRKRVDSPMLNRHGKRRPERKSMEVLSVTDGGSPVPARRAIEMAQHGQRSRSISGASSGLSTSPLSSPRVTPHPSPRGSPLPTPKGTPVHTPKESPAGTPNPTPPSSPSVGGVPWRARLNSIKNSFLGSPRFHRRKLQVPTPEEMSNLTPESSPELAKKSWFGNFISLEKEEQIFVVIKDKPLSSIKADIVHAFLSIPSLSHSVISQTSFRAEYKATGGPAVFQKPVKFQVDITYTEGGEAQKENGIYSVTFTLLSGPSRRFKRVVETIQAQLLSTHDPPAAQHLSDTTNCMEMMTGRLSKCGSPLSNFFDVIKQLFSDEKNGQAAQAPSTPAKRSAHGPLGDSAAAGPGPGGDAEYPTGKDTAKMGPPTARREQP
Chain of UniProt Q13554 (whole entry, looked up): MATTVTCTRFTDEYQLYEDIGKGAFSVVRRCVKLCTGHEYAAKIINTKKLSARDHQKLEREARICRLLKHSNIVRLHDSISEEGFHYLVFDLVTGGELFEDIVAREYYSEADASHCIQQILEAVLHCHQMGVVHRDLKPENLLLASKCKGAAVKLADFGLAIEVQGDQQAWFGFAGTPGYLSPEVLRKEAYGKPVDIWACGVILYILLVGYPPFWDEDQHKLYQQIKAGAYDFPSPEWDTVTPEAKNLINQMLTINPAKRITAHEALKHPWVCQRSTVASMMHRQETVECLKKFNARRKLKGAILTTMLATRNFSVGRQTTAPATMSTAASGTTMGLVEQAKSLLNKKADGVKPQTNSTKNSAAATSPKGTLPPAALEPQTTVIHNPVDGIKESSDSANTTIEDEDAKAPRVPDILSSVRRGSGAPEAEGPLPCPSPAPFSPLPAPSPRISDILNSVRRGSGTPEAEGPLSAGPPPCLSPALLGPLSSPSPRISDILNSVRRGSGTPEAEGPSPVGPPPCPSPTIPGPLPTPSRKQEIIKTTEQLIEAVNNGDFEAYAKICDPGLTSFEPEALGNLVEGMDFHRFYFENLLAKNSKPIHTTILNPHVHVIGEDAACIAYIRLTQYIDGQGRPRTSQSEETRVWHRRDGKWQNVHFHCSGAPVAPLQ
Chain of UniProt Q9UHD2 (whole entry, looked up): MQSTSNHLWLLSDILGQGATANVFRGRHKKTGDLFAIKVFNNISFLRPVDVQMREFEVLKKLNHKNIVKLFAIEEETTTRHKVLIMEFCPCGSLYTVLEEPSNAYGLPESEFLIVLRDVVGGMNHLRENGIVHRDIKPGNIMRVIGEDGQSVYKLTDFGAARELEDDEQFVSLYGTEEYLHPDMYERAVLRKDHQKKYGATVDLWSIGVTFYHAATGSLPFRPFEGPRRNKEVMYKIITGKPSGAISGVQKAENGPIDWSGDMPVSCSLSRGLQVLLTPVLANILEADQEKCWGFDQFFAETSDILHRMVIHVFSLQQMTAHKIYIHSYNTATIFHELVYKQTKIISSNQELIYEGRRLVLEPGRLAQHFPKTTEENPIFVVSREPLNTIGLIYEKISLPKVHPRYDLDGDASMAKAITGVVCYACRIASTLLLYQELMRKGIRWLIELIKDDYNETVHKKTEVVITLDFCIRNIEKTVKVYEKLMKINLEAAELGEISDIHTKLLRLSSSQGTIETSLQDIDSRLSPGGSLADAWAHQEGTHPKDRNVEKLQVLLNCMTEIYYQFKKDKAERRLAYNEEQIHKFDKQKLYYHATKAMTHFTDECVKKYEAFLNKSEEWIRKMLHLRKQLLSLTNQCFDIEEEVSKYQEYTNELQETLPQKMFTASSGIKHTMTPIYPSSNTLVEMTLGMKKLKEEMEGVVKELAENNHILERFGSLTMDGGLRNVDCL
Chain of UniProt P42684 (whole entry, looked up): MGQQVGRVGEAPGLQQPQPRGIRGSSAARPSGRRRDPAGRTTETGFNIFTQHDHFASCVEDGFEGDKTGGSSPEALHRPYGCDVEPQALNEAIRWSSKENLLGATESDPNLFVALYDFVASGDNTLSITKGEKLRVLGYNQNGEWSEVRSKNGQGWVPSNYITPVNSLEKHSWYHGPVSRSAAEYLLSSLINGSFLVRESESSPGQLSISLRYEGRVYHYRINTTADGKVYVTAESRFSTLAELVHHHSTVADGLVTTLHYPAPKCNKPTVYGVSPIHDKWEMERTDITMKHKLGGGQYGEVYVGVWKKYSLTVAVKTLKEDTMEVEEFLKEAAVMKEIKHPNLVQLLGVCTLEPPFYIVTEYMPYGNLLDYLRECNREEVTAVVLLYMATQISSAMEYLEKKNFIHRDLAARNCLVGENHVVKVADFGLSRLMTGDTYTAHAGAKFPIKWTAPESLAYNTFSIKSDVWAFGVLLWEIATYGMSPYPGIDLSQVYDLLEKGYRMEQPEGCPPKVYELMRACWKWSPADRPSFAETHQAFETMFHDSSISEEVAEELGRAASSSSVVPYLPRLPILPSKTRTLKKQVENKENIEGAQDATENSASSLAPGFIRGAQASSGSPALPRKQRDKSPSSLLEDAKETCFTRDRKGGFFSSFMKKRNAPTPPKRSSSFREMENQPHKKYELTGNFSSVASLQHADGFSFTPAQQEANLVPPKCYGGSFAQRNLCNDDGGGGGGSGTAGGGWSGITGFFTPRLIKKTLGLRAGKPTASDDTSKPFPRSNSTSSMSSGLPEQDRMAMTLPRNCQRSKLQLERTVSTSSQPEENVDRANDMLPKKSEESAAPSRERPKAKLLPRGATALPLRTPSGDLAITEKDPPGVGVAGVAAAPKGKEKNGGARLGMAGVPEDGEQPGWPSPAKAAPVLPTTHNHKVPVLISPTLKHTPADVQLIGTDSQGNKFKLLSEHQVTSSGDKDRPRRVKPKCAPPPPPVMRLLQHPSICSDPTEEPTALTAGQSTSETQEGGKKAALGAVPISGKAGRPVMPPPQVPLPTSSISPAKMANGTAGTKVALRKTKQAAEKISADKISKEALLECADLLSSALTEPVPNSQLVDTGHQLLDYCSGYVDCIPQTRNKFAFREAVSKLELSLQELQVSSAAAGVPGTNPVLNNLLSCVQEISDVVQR
Chain of UniProt P08172 (whole entry, looked up): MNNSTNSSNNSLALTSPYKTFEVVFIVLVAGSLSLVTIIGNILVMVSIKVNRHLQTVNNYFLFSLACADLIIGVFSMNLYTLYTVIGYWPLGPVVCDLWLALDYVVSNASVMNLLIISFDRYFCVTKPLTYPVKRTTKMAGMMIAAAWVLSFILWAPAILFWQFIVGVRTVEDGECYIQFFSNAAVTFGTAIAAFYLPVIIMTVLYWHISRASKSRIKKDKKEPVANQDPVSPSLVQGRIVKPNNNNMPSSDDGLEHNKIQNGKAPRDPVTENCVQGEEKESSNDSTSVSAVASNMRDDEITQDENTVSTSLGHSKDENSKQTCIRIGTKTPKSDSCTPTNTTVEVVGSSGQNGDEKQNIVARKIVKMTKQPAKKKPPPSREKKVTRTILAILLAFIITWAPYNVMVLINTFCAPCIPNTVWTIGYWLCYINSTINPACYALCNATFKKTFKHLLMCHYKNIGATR

`Nc1ccc(/C=C/C(=O)N2CCc3c(oc4c(-c5ccc(F)cc5)cc(-c5ccc(C(=O)N6CCC(F)(F)CC6)cn5)cc34)C2)cn1` gave a remaining binding of 91% (PIM3 (Homo sapiens, UniProt Q86V86); binding, competition with immobilised ligand; 1 µM).
With `Cc1sc2c(c1C)C(c1ccc(Cl)cc1)=N[C@@H](CC(=O)OC(C)(C)C)c1nnc(C)n1-2` the binding stoichiometry was 1.07 ± 0.002 (Bromodomain-containing protein 3, BD1 (BRD3, Homo sapiens, UniProt Q15059); isothermal titration calorimetry; concentration not given, 15 °C, reverse titration).
The inhibition of `CS(C)(=O)=Nc1ccc(-c2ccc(-c3nc4cc(O[C@@H]5CO[C@H]6[C@@H]5OC[C@H]6O)[nH]c4cc3F)cc2)cc1` is reported as 16% (BRSK2 (Homo sapiens, UniProt Q8IWQ3); enzyme activity, inhibitor; 10 µM).
The inhibition of `CN(C)[C@H]1C[C@@]23CC[C@@]4(O2)C(=CC[C@]2(C)[C@@H](c5ccc6ccncc6c5)CC[C@H]24)C=C3[C@@H](O)[C@@H]1O` is reported as -6.9% (TBK1 (Homo sapiens, UniProt Q9UHD2); ATP probe labelling, inhibitor, KiNativ profiling; 0.1 µM).
`N[C@H](C(=O)N1CCCC1)C1CCN(c2nccc3c(-c4ncc(Cl)cc4Cl)cccc23)CC1` has an inhibition of 14% (CHRM2 (Homo sapiens, UniProt P08172); functional response, antagonist; 10 µM).
The tissue uptake of `CC[C@H](C)[C@H](NC(=O)[C@H](CO)NC(=O)[C@H](Cc1ccc(O)cc1)NC(=O)[C@H](Cc1ccc(O)cc1)NC(=O)[C@H](CC(N)=O)NC(=O)CNC(=O)[C@H](CO)NC(=O)[C@H](Cc1ccc(O)cc1)NC(=O)[C@H](CO)NC(=O)[C@H](CO)NC(=O)[C@H](CC(N)=O)NC(=O)COCCOCCNC(=O)CN1CCN(CC(=O)O)CCN(CC(=O)O)CCN(CC(=O)O)CC1)C(=O)N[C@@H](CC(C)C)C(N)=O` [copper-64 labelled] is reported as 14.5 %ID/mL (dynamic PET; KPC mouse Ptf1a-CreER tdTomato, metastases; intravenous, dose not given, 2.5 min, 84 d after tamoxifen).
For `O=C1NC(=O)c2c1c1cc(F)c[n+]3c1c1c2c2cc(O)ccc2[n]1[Ru-4]312([N]=C=S)[S+]3CC[S+]1CC[S+]2CC3` (stereo not drawn), the remaining activity was 93% (ABL2 (Homo sapiens, UniProt P42684); enzyme activity; 100 nM, human enzyme, together with: 10 µM ATP; relative to: untreated).
`CC(C)[C@H]1NC(=O)C[C@H]2/C=C/CCSSC[C@@H](NC1=O)C(=O)N[C@H](Cc1cccc3ccccc13)C(=O)NCC(=O)O2` has an inhibition of -0.9% (CAMK2B (Homo sapiens, UniProt Q13554); enzyme activity, inhibitor; 10 µM).
For `CC(C)(C)C(=O)OCOP(=O)(OCOC(=O)C(C)(C)C)C1CCCN(O)C1=O` (stereo not drawn), the Log10TGI was -5.64 log M (CCRF-CEM).
With `CC(C)CC(O)(CC(C)C)c1cn(C(=O)N2CCCC2)nn1` the activity ratio-of-ratios was 2.71 (Palmitoyl-protein thioesterase ABHD10, mitochondrial (Mus musculus, UniProt Q6PE15); probe labelling, inhibitor, refers to: Abhd10; mouse, brain; i.p., 0.8 mg/kg, 4 h, protein level; relative to: treated over vehicle mice, lower = stronger inhibition).
With `COc1ccccc1-c1n[nH]c2nc(NC3CCN(C(=O)Cc4ccc(F)cc4F)CC3)ncc12` the relative abundance was 1.04 (bead binding, competition bead pull-down, refers to: LINJ.36.6960; Leishmania donovani axenic amastigote extract; 10 µM; relative to: vehicle).
`O=C1NC2(CC2)COc2ncc(F)cc2[C@H]2COCCN2c2ccn3ncc1c3n2` gave a potassium of 3.93 ± 0.32 mmol/L (Sprague-Dawley rat, female, serum; oral, 5 mg/kg/day, 4 weeks daily, end of treatment).

A few entries again:
With `Cc1sc2c(c1C)C(c1ccc(Cl)cc1)=N[C@@H](CC(=O)OC(C)(C)C)c1nnc(C)n1-2` the binding stoichiometry was 1.07 ± 0.002 (Bromodomain-containing protein 3, BD1 (BRD3, Homo sapiens, UniProt Q15059); isothermal titration calorimetry; concentration not given, 15 °C, reverse titration).
